Assay results collected from several papers.
Lines come from different studies, so protocols differ. “And” joins repeats or separate records; there may be more than shown. ± gives the spread as reported.
Tumor necrosis factor receptor superfamily member 9/Nectin-4: Tumor necrosis factor receptor superfamily member 9/Nectin-4 (Homo sapiens, UniProt Q07011+Q96NY8)
Sequence of UniProt Q64663 (whole entry, unmodified, looked up): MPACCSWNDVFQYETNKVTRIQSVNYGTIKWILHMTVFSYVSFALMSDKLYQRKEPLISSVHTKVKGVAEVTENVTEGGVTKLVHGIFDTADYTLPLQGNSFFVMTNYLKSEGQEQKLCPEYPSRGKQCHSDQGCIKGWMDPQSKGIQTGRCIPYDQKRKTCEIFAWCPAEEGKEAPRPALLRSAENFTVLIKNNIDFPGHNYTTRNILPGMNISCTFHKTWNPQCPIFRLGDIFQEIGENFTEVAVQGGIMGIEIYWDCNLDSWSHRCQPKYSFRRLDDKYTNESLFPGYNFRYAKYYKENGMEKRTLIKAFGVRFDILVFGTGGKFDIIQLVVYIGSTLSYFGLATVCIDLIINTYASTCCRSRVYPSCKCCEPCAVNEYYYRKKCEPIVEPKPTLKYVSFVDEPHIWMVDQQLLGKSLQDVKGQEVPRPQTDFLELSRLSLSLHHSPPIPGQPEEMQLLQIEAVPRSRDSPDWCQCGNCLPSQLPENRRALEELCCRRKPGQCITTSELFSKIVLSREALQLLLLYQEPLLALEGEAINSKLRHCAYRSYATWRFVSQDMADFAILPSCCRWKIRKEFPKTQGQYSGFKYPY
Sequence of UniProt Q07011 (whole entry, looked up): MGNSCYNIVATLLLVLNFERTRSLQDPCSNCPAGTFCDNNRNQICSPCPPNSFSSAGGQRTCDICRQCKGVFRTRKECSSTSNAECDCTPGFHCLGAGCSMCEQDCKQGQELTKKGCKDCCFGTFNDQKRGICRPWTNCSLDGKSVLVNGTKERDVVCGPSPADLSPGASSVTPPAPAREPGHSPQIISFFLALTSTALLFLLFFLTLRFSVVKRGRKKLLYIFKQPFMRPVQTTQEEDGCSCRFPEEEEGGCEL
Sequence of UniProt Q96NY8 (whole entry, looked up): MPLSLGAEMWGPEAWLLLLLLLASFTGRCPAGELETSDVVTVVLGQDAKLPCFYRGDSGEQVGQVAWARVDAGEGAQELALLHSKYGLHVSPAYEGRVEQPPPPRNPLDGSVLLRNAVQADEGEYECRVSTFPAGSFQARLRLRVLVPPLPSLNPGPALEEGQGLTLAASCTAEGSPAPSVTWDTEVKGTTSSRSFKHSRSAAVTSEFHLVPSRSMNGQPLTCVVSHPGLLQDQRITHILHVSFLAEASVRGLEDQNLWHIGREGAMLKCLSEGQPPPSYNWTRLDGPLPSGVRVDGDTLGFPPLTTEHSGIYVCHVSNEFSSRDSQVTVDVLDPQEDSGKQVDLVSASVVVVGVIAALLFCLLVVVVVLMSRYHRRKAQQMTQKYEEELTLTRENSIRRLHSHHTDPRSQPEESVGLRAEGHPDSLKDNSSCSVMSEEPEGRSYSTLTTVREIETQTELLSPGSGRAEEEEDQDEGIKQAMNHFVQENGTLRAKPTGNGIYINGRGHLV
Sequence of UniProt P11388 (whole entry, looked up): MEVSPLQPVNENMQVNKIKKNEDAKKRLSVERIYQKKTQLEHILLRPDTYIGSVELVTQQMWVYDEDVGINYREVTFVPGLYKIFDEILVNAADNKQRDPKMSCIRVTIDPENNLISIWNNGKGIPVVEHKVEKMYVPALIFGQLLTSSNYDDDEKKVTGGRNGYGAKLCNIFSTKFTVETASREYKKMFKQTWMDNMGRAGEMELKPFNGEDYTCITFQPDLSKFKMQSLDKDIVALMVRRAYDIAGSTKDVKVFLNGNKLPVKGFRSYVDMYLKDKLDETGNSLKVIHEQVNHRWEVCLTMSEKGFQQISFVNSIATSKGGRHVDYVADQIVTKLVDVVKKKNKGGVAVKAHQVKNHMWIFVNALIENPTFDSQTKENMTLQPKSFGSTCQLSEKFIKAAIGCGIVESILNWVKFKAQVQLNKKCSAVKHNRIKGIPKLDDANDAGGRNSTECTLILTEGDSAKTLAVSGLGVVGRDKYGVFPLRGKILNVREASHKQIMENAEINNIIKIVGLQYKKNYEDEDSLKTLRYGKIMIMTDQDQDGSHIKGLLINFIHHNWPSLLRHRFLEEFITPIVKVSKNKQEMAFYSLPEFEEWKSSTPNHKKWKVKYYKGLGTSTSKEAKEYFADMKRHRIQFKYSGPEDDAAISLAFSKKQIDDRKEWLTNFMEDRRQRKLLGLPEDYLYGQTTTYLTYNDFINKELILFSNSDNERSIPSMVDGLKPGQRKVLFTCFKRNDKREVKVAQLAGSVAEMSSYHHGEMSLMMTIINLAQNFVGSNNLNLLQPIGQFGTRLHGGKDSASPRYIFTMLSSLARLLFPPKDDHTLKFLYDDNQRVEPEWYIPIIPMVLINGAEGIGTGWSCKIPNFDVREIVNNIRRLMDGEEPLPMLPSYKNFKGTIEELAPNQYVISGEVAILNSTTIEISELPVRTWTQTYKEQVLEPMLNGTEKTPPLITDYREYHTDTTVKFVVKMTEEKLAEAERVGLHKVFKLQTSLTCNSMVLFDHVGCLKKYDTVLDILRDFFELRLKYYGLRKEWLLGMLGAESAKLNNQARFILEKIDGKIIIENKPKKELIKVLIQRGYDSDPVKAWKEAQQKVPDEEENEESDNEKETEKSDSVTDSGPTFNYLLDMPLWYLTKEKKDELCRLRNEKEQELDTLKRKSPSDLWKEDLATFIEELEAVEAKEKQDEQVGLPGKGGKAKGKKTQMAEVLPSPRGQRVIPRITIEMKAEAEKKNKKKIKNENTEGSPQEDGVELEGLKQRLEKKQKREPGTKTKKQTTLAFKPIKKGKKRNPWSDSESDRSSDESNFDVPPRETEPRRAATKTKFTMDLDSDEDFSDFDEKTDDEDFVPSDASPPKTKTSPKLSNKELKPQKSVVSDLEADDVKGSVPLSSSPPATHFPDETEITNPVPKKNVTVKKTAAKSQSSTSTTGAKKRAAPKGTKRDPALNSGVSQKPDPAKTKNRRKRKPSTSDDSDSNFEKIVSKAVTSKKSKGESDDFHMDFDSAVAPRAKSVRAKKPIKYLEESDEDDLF
Sequence of UniProt P51575 (whole entry, unmodified, looked up): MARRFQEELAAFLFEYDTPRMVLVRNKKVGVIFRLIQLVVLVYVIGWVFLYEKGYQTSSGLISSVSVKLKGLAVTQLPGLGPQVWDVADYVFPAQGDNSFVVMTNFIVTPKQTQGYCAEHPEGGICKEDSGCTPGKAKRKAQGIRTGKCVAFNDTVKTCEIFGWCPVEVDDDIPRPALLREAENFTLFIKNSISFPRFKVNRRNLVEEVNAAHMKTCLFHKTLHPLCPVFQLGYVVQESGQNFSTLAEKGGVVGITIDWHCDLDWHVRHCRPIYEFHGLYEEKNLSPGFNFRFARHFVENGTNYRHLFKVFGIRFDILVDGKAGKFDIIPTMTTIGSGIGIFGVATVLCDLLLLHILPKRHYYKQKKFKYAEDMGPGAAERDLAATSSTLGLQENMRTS
Sequence of UniProt Q96EB6 (whole entry, looked up): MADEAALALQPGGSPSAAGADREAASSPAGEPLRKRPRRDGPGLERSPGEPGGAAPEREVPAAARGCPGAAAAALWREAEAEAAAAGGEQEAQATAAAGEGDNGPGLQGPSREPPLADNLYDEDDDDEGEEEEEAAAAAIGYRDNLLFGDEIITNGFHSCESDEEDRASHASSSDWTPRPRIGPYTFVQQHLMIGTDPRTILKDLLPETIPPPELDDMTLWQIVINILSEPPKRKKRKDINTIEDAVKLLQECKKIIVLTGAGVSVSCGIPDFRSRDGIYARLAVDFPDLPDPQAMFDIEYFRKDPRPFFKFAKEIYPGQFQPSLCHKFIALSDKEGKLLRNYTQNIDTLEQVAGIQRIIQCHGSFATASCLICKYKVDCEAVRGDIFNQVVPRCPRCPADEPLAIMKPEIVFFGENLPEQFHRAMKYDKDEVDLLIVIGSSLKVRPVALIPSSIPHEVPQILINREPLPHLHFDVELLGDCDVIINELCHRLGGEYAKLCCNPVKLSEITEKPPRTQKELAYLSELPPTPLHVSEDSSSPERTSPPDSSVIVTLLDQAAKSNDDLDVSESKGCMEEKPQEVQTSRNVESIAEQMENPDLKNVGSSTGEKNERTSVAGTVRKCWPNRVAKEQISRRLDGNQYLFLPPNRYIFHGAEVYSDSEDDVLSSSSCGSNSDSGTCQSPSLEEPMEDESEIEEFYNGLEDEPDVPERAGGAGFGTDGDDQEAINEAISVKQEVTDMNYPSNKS
Sequence of UniProt Q8IW41 (whole entry, looked up): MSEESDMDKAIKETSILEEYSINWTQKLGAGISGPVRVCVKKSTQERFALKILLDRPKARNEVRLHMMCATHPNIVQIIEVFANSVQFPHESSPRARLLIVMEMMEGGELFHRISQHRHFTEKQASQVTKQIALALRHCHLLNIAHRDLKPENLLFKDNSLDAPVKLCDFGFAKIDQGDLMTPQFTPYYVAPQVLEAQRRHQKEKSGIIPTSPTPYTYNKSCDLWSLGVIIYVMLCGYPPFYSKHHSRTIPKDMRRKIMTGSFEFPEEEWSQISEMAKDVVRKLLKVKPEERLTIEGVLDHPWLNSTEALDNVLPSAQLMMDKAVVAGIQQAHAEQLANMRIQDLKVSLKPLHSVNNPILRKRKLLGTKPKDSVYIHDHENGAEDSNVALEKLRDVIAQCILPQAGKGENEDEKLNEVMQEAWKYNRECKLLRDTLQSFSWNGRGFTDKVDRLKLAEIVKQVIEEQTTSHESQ
Sequence of UniProt Q96SW2 (whole entry, looked up): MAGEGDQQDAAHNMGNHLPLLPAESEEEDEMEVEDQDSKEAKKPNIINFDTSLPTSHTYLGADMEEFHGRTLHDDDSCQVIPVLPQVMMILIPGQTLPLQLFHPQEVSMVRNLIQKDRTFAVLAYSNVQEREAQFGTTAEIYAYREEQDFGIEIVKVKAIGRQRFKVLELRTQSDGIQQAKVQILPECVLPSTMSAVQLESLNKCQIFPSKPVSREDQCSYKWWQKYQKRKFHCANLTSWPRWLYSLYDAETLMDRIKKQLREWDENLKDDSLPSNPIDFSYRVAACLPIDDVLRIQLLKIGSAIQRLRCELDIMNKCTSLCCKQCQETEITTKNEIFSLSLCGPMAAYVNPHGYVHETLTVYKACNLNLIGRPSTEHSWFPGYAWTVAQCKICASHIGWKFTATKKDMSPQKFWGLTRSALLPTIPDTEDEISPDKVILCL

Compound | target or system | test | system | conditions | how to read | quantity | value
Cc1ncsc1-c1ccc(CNC(=O)[C@@H]2C[C@@H](O)CN2C(=O)[C@@H](NC(=O)C2(F)CC2)C(C)(C)C)c(OCCOc2ccc(CN3CCN(c4cc(-c5ccccc5O)nnc4N)CC3)cc2)c1 | Protein polybromo-1, BD5 (PBRM1, Homo sapiens, UniProt Q86U86) | ternary complex binding, TR-FRET competition |  | with: VCB complex |  | cooperativity factor alpha | 12
C=CC(=O)N1CCC(COCC(=O)N2CCN(c3nc(-c4cnc(N)nc4C(F)F)nc(N4CCOC[C@@H]4C)n3)CC2)CC1 | Tyrosine-protein kinase ABL1, non-phosphorylated (ABL1, Homo sapiens, UniProt P00519, Q252H) | KINOMEscan |  | 1 µM |  | remaining binding | 96%
Nc1ncnc2c1ncn2[C@@H]1O[C@H](COP(=O)(O)CP(=O)(O)OP(=O)(O)O)[C@@H](O)[C@H]1O | P2X purinoceptor 1 (P2RX1, Homo sapiens, UniProt P51575, F188L) | saturation binding | HEK293 | 13 nM |  | specific binding | 1290 CCPM and 1540 CCPM
Cc1cccc(N2CC(C(=O)O)CC2=O)c1 (centres unmarked) | ATP-dependent RNA helicase DDX1 (Homo sapiens, UniProt Q92499) | binding, affinity selection mass spectrometry |  |  | relative to: other proteins in batch | fold enrichment | 1.33
CCCC[C@@H]1NC(=O)[C@H](Cc2ccc(O)cc2)NC(=O)[C@@H]2CCCN2C(=O)[C@H](CC(=O)O)NC(=O)[C@H](C)NC(=O)[C@H](Cc2ccccc2)NC(=O)[C@@H]2CSCCC(=O)N3CN(CN(C3)C(=O)CCSC[C@@H](C(=O)N[C@@H](CNC(=O)CCOCCOCCOCCOCCOCCOCCOCCOCCOCCOCCOCCOCCn3cc(CCC(=O)NCCC(=O)N(C)CC(=O)N(C)CC(=O)N(C)CC(=O)N(C)CC(=O)N(C)CC(=O)N(C)CC(=O)N(C)CC(=O)N(C)CC(=O)N(C)CC(=O)N(C)CC(=O)N[C@H]4CSCCC(=O)N5CN6CN(C5)C(=O)CCSC[C@H](NC(=O)[C@@H](CC(=O)O)NC(=O)[C@H](Cc5cccc7ccccc57)NC(=O)[C@@H]5CCCN5C4=O)C(=O)N[C@@H](CCSC)C(=O)N[C@@H](CCCCNC(=N)N)C(=O)N[C@@H](CC(=O)O)C(=O)N[C@@H](Cc4c[nH]c5ccccc45)C(=O)N[C@@H](CO)C(=O)N[C@@H]([C@@H](C)O)C(=O)N4CCC[C@H]4C(=O)N4C[C@H](O)C[C@H]4C(=O)N[C@@H](Cc4c[nH]c5ccccc45)C(=O)N[C@H](C(N)=O)CSCCC6=O)nn3)C(N)=O)NC1=O)C(=O)CCSC[C@H](NC(C)=O)C(=O)N[C@@H](CC(C)(C)C)C(=O)N1CCC[C@H]1C(=O)N[C@@H](CCC(=O)O)C(=O)N[C@H](C)C(=O)N1CCC[C@H]1C(=O)N[C@@H](Cc1ccc(O)cc1)C(=O)N2 | Tumor necrosis factor receptor superfamily member 9/Nectin-4 | reporter gene, agonist | HT-1376 coculture with reporter cells |  | relative to: background | Emax | 36 fold
COc1ccc(Cc2nnc(NS(=O)(=O)c3ccc(C(C)(C)C)cc3)s2)cc1 | Glutathione hydrolase 1 proenzyme, without transmembrane domain (Homo sapiens, UniProt P19440) | GSH hydrolysis |  | 37 °C, no inhibition up to 250 µM, with: GSH 5-20 µM |  | Kii | > 250 µM
Cn1cc(-c2ccc(-c3cncc(Cl)c3N3CCC4(CCNC4=O)CC3)cc2)cn1 | COLO 205 | gene expression, microarray, refers to: APOL6 mRNA |  | concentration not given, 6 h | relative to: untreated cells | log2 fold change | 1.46
CNC[C@H](O)c1cccc(O)c1 | ADRA1A (Homo sapiens, UniProt P35348) | agonist, immunoblot, refers to: phospho-ERK1/2 | HEK293 stably transfected with ADRA1A | 10 µM |  | duration of ERK phosphorylation | 24 h
CCCC[C@@H]1NC(=O)[C@H](Cc2ccc(O)cc2)NC(=O)[C@@H]2CCCN2C(=O)[C@H](CC(=O)O)NC(=O)[C@H](C)NC(=O)[C@H](Cc2ccccc2)NC(=O)[C@@H]2CSCCC(=O)N3CN(CN(C3)C(=O)CCSC[C@H](NC(C)=O)C(=O)N[C@@H](CC(C)(C)C)C(=O)N[C@@H](CCC(=O)O)C(=O)N[C@@H](CCC(=O)O)C(=O)N[C@H](CCCCNC(=O)CCc3cn(CCOCCOCCOCCOCCOCCC(=O)N[C@H]4CSCCC(=O)N5CN6CN(C5)C(=O)CCSC[C@H](NC(=O)[C@@H](CC(=O)O)NC(=O)[C@H](Cc5cccc7ccccc57)NC(=O)[C@@H]5CCCN5C4=O)C(=O)N[C@@H](CCSC)C(=O)N[C@@H](CCCCNC(=N)N)C(=O)N[C@@H](CC(=O)O)C(=O)N[C@@H](Cc4c[nH]c5ccccc45)C(=O)N[C@@H](CO)C(=O)N[C@@H]([C@@H](C)O)C(=O)N4CCC[C@H]4C(=O)N4C[C@H](O)C[C@H]4C(=O)N[C@@H](Cc4c[nH]c5ccccc45)C(=O)N[C@H](C(N)=O)CSCCC6=O)nn3)C(=O)N3CCC[C@H]3C(=O)N[C@@H](Cc3ccc(O)cc3)C(=O)N2)C(=O)CCSC[C@@H](C(N)=O)NC1=O | Tumor necrosis factor receptor superfamily member 9/Nectin-4 | reporter gene, agonist | HT-1376 coculture with reporter cells |  | relative to: background | Emax | 44 fold
CNc1ncc2c(/C=C/C(=O)N3CCC(OC)CC3)nn(Cc3cccc(C(F)(F)F)c3)c2n1 | FLT4 (Homo sapiens, UniProt P35916) | kinase activity, inhibitor |  | 1 µM | relative to: untreated control | remaining activity | 98%
Nc1ncnc2c1ncn2[C@@H]1O[C@H](COP(=O)(O)OP(=O)(O)OP(=O)(O)O)[C@@H](O)[C@H]1O | CKMT1A (Homo sapiens, UniProt P12532, H99K) | substrate, ADP-Glo luminescence |  | pH 8.5, forward reaction, H61K mutant, with: second substrate in excess |  | kcat | 1.3 ± 0.6 s⁻¹
CC(=O)N[C@H](C(=O)N1C[C@H](O)C[C@H]1C(=O)NCc1ccc(-c2scnc2C)cc1)C(C)(C)SCCCCCCNC(=O)C[C@@H]1N=C(c2ccc(Cl)cc2)c2c(sc(C)c2C)-n2c(C)nnc21 | VHL/BRD3, BD2; with Elongin B/C (Homo sapiens, UniProt P40337+Q15059) | ternary complex binding, ITC |  | 25 °C, unit not given, with: VHL-ElonginB-ElonginC, PROTAC:Brd3^BD2 | relative to: binary binding to VHL-ElonginB-ElonginC, positive = cooperative | ΔpKd ternary minus binary | 0.6 ± 0.1
Nc1ncnc2c1ncn2[C@@H]1O[C@H](COP(=O)(O)OP(=O)(O)O)[C@@H](O)[C@H]1O | GUK1 (Homo sapiens, UniProt Q16774) | binding, isothermal titration calorimetry |  | molar ratio 2.83, fitted curve |  | ΔH | -0.181 kcal/mol
C[C@H]1O[C@@H](O[C@H]2CC[C@@]3(C)[C@@H](CC[C@]4(C)[C@@H]3C=C[C@]35OC[C@@]6(CCC(C)(C)C[C@H]63)[C@@H](O)C[C@]54C)[C@]2(C)CO)[C@H](O)[C@@H](O[C@@H]2O[C@H](CO)[C@@H](O)[C@H](O)[C@H]2O)[C@H]1O | SIRT1 (Homo sapiens, UniProt Q96EB6) | binding, microscale thermophoresis |  | 161 nM |  | MST normalised fluorescence | 885 a.u.
Nc1ccn([C@@H]2O[C@H](COP(=O)(O)OP(=O)(O)OP(=O)(O)O)[C@@H](O)[C@H]2O)c(=O)n1 | DNA-directed RNA polymerase subunit beta' / DNA-directed RNA polymerase subunit beta (rpoC/rpoB, Escherichia coli, UniProt P0A8T7+P0A8V2) | RNA extension, rapid quench-flow | Escherichia coli, elongation complex, 6-MI template | 200 µM, 25 °C, slow complex fraction |  | nucleotide addition rate | 1.5 ± 0.3 s⁻¹
COc1cccc2c1OCC(C(=O)Nc1ccc3c(c1)CN(C1CCC(=O)NC1=O)C3=O)=C2 (centres unmarked) | GSPT1/CRBN (Homo sapiens, UniProt P15170+Q96SW2) | degrader, Western blot, refers to: GSPT1/CRBN | A2780 and OCI-Ly3 | concentration not given, 24 h |  | protein level | no effect
O=C(O)c1ccc(Nc2ncc3c(n2)-c2ccc(Cl)cc2C(c2c(F)cccc2F)=NC3)cc1 | human NLK | inhibitor, biochemical kinase |  | 1 µM |  | remaining activity | 104%
Nc1ncnc2c1ncn2[C@@H]1O[C@H](COP(=O)(O)OP(=O)(O)OP(=O)(O)O)[C@@H](O)[C@H]1O | P2X purinoceptor 7 (P2rx7, Rattus norvegicus, UniProt Q64663, I214A/Q143A) | ion current, agonist, two-electrode voltage clamp | Xenopus laevis oocytes | 2700 µM | relative to: highest concentration response | normalized current | 1 and 0.988
Cc1ccc(OC[C@H]2CN(CCN3CCc4ccccc43)CCO2)cn1 | HTR5A (Homo sapiens, UniProt P47898) | radioligand binding |  | concentration not given, with: [3H]LSD |  | inhibition | -9.3%
COc1cc(-c2cncc3c2CN(C)Cc2cc(N4CCNCC4)ccc2-3)cc(OC)c1OC | MAPKAPK5 (Homo sapiens, UniProt Q8IW41) | kinase activity |  | 1 µM, human enzyme, with: ATP 10 µM | relative to: DMSO control | remaining activity | 104%
Nc1ncnc2c1ncn2[C@@H]1O[C@H](COP(=O)(O)OP(=O)(O)OP(=O)(O)O)[C@@H](O)[C@H]1O | P2X purinoceptor 2 (P2RX2, Homo sapiens, UniProt Q9UBL9) | ion current, agonist, two-electrode voltage clamp | Xenopus oocytes | concentration not given, first maximal application |  | peak current | 4490 nA
CC(=O)N[C@H](C(=O)N[C@@H](CC(N)=O)C(=O)N[C@@H](CCCCN)C(=O)N1CCC[C@H]1C(=O)N[C@@H](CC(C)C)C(=O)N1CCC[C@H]1C(=O)N1CCC[C@H]1C(=O)N[C@@H](CC(C)C)C(=O)N1CCC[C@H]1C(=O)N[C@H](C(=O)N[C@@H](C)C(N)=O)C(C)C)C(C)C | High osmolarity signaling protein SHO1, SH3 domain (SHO1, Saccharomyces cerevisiae, UniProt P40073) | binding, isothermal titration calorimetry | 50 mM sodium phosphate, 100 mM NaCl | pH 7.0, 25 °C |  | -TΔS | -0.598 ± 0.0239 kcal/mol
O=c1nc(SCc2cc(F)cc(C(F)(F)F)c2)nc(SCc2ccc3nc(Cl)ccc3c2)[nH]1 | TOP2A (Homo sapiens, UniProt P11388) | ATPase activity |  | 125 µM, with: ATP 1 mM |  | ATP hydrolysis rate | 2.88 µM/min and 0.498 µM/min
